# Published values of several laboratories.
# Each numbered part is a random draw from the data of one study; scales do not carry over between parts. Substitutions count along the parent as printed.

# Series 1 — technique: protein binding microarray; form: double-stranded DNA, one strand shown; matrix: in vitro; tested at: not given; reference: not given; reading: higher = stronger binding
# Target: Histone acetyltransferase KAT6A, winged helix 1, GST fusion (KAT6A, Homo sapiens, UniProt Q92794, residues 1-85)
# Notes: 8-mer, flanks averaged, mean of 2 arrays, mostly near background
# Target sequence (chain): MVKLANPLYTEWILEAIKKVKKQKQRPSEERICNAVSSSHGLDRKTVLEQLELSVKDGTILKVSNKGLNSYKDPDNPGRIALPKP
Oligonucleotide,E-score
ACCCGTTC,0.16
ACGATTAA,0.0612
CTTCTAGC,-0.0674
CAAGGTTA,-0.0492
CCCTCGCC,0.00854
ATAGGTAA,-0.159
AATACCAT,-0.183
AAGGATGA,-0.0955
ACCCATAC,-0.189
ATCCCGGA,-0.072
GGGTAACC,0.00997
AAAAACTC,-0.195
AGCGCATA,0.24
GGCTCCTA,-0.0366
CAACTCGC,0.00199
ACGAGGAA,-0.119
CTGAATGC,-0.115
CACGAGTC,-0.138
CATGTAGC,0.0517
ATAAGGAC,0.0287
CGCCTTGA,0.0934

# Series 2 — technique: aptamer microarray, sandwich; form: DNA with 2'F-ANA; matrix: in vitro; tested at: 200 nM; together with: Cy3 exosite-II aptamer, 400 nM; reading: higher = stronger binding; oligonucleotide: GGTTGGTGTGGTTGG
# Target: Prothrombin, mature alpha-thrombin (F2, Homo sapiens, UniProt P00734)
# Notes: whole 15-mer aptamer, many near background
Modification,mean fluorescence intensity [a.u.]
2'F-ANA at 1 2 5 6 9 14 15,46.4
2'F-ANA at 3 4 8 9 11 12 14,336
2'F-ANA at 2 3 7 8 10 12 13 14,307
2'F-ANA at 1 3 4 6 8 10 11 12 14 15,51.1
2'F-ANA at 1 2 3 7 9 11,189
2'F-ANA at 1 3 4 7 9 10 12 13 14,52.8
2'F-ANA at 4 6 7 11 12 15,380
2'F-ANA at 4 6 8 10 11 13 14 15,56.8
2'F-ANA at 1 2 3 5 6 7 9 10 11 14 15,51.7
2'F-ANA at 2 3 6 8 9 14,386
2'F-ANA at 1 2 4 6 9 10 11 13,68.3
2'F-ANA at 2 5 6 8 9 10 12 14,62.7
2'F-ANA at 2 5 6 9 10 11 12 13 14,66.2
2'F-ANA at 1 2 4 8 9 10 11 12 14,49.8
2'F-ANA at 1 2 3 9 11 13,188
2'F-ANA at 1 2 3 6 7 9 11 12 15,250
2'F-ANA at 1 3 4 7 9 10 11 14,62.8
2'F-ANA at 1 2 5 10 12 13 14,45.1

# Series 3 — target: CCND2, cyclin fold, Cln2 fusion (human); technique: yeast growth competition, sequencing; matrix: yeast; notes: weak parent motif; reference: not given; reading: higher = stronger binding
# Parent: WEE1 docking peptide (human); HKTFRKLRLFDTP
Variant,normalised enrichment score
CKTFRKLRLFDTP [H1C],0.312
HKTFRKLRLFDCP [T12C],-0.114
HKTFRKLCLFDTP [R8C],0.0759
HKTWRKLRLFDTP [F4W],0.298
HKTFRKLRLDDTP [F10D],-0.566
HKTFRKLRLFDTQ [P13Q],-0.318
HKTFRKLRWFDTP [L9W],-0.404
HKTFRKLRLADTP [F10A],-0.0105
HRTFRKLRLFDTP [K2R],0.471
HKTFRKLRLFDTR [P13R],-0.412
HKTFRKLMLFDTP [R8M],0.342
HKTFRKLRLFITP [D11I],-0.198
HKTFRKLRLRDTP [F10R],-0.27
HKTFRKLRVFDTP [L9V],-0.285
HKTFRKMRLFDTP [L7M],-0.113
HETFRKLRLFDTP [K2E],0.307

# Series 4 — technique: DHFR PCA, deep sequencing; matrix: yeast; together with: (+)-ABA 58 µM; reference: wild-type fitted maximum; reading: higher = stronger binding
# Target: ABI1, truncated, D143A, DHFR fusion (Arabidopsis thaliana)
# Notes: methotrexate growth selection, single substitutions
# Parent: PYL1, truncated, DHFR fusion (Arabidopsis thaliana); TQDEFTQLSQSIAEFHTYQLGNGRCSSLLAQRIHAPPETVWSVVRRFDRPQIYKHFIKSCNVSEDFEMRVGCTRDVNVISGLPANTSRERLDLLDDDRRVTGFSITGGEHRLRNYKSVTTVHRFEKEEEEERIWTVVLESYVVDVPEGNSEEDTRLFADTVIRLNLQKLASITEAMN; partner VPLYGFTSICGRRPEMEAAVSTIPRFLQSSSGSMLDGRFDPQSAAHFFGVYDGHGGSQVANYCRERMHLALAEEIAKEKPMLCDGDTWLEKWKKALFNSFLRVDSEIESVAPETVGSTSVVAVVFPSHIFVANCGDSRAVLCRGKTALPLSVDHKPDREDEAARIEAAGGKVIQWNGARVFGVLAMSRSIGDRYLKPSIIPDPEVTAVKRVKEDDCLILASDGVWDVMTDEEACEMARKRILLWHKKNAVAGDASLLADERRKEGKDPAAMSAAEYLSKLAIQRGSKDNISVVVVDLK
Variant,relative binding score [%]
Q2S,83
A13N,80.3
N114E,29
N165S,19.8
G102W,22.1
H34L,86.8
V44R,-4.08
K58S,81.5
R74D,0.0456
Q7C,85.2
T101G,-2.46
F5L,96.7

# Series 5 — technique: competition protein-binding microarray; form: double-stranded DNA, one strand shown; matrix: in vitro; tested at: 2 µM; together with: Pho4 competitor, 0.05 µM; reading: higher = stronger binding; all sequences stand within: … GTCTTGATTCGCTTGACGCTGCTG
# Target: Centromere-binding protein 1, full length, His-tagged (CBF1, Saccharomyces cerevisiae, UniProt P17106, residues 1-351)
# UniProt P17106, sequence (whole entry, looked up): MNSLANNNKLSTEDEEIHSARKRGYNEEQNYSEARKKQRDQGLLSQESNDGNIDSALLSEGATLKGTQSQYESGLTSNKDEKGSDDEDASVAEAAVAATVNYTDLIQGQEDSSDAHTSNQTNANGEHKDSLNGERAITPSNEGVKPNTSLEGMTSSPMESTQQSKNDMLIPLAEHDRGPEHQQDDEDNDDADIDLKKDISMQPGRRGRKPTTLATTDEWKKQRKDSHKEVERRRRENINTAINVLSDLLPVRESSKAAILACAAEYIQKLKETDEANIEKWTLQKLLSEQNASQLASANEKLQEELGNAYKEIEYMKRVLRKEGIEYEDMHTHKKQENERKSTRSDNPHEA
# Notes: whole 60-bp probe, lowest competitor level
Oligonucleotide,fluorescence intensity
TGCGCAACAACTTGCCCTGTGGGTGTATGTCTAGAA,61.2 a.u.
AGCCCGGGGACTTGCCGCGTGGCACCTTGGGGCGCT,52.7 a.u.
CCTCCTATGCTGCGTCTCGTGGGTACTATGGCGTCG,94.5 a.u.
GCCCTCGGCGGGGGCCACGTGGCTCTCAGGCGCCTG,659 a.u.
CTTCTTCGTTACAGTGACGTGAGATGTTCAGCAGTC,80.2 a.u.
CTTTCCCGATCTTGAGATGTGGGTGTAGCACATTTG,67.4 a.u.
CTTTCCCGATCTTGTCACAGGACTTTAGCACATTTG,111 a.u.
CATACCCAACCTTGTGTTGTGGGTGAAGATATTTGT,88.9 a.u.
AAATTACTAAGTTGAGGAGTGGGTGACGCCGTATGA,63.5 a.u.
GATATCCTTTCCCATCACGTGAAGGGTGTTTCGCTG,3100 a.u.
AGAGAAATATCGGAACGCATGCAGACCAAATTTATA,91 a.u.
AAATTACTAAGTTGCATCGTGGGTGACGCCGTATGA,65.5 a.u.
CATACCCAACCTTTTCACGTGGCCTAAGATATTTGT,1060 a.u.
AAATTACTAAGTTGTAATGTGGGTGACGCCGTATGA,71.7 a.u.
AGAAACAACACTACTGCTGTGACAGTTCAAATCGGT,69.1 a.u.
CGTCCTAGCGATTGACTGGTGGGTGCCATGAGGAAG,67.4 a.u.
TTGTTTTCTTCTTCACACGTGAGATTTTCCGCCGGC,917 a.u.
AAATTACTAAGTTGGCGAGTGGGTGACGCCGTATGA,69.8 a.u.

# For quick reference, copied from above (series 4):
Variant,relative binding score [%]
A13N,80.3
N114E,29
N165S,19.8
G102W,22.1
H34L,86.8
V44R,-4.08
K58S,81.5
R74D,0.0456
Q7C,85.2
